Measurements of several laboratories.
A part holds a random share of what one study measured. Substitutions count along the parent as printed.

Series 1 — method: DHFR PCA, deep sequencing; matrix: yeast; added: (+)-ABA 200 µM; reference: wild-type fitted maximum; reading: higher = stronger binding
Target: ABI1, truncated, D143A, DHFR fusion (Arabidopsis thaliana)
Notes: methotrexate growth selection, single substitutions
Parent: PYL1, truncated, DHFR fusion (Arabidopsis thaliana); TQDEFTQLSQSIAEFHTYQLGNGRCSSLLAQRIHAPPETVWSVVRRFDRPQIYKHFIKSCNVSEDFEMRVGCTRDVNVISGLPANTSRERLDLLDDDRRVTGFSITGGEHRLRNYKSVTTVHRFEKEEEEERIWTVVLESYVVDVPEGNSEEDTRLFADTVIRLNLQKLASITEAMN
Under “relative binding score”, `R90P` is recorded as 1.18%.
Under “relative binding score”, `K126A` is recorded as 108%.
For `I172S`, “relative binding score” read 63.2%.
`R90S`: “relative binding score” 83.4%.
Under “relative binding score”, `R74E` is recorded as 12.4%.
For `R69I`, “relative binding score” read 105%.
Under “relative binding score”, `S42V` is recorded as 77.2%.
Under “relative binding score”, `S42F` is recorded as 68.9%.
Under “relative binding score”, `E89Q` is recorded as 16.9%.
For `V76C`, “relative binding score” read 99.9%.
`V62W` — result for “relative binding score”: 74.8%.
Under “relative binding score”, `V76W` is recorded as 12.2%.
For `V76G`, “relative binding score” read -3.61%.
For `D97H`, “relative binding score” read 103%.
For `S11T`, “relative binding score” read 90.2%.
`A84C`: “relative binding score” 86.4%.
Under “relative binding score”, `N22P` is recorded as 101%.
`S80N`: “relative binding score” 66.4%.
`N177L` — result for “relative binding score”: 100%.
For `D153M`, “relative binding score” read 18%.

Series 2 — method: universal PBM; molecule type: double-stranded DNA, one strand shown; matrix: in vitro; concentration: 600 nM; reading: higher = stronger binding
Target: Sal-like protein 4, full length isoform A (SALL4, Homo sapiens, UniProt Q9UJQ4, residues 1-1053)
UniProt Q9UJQ4, sequence (whole entry, looked up): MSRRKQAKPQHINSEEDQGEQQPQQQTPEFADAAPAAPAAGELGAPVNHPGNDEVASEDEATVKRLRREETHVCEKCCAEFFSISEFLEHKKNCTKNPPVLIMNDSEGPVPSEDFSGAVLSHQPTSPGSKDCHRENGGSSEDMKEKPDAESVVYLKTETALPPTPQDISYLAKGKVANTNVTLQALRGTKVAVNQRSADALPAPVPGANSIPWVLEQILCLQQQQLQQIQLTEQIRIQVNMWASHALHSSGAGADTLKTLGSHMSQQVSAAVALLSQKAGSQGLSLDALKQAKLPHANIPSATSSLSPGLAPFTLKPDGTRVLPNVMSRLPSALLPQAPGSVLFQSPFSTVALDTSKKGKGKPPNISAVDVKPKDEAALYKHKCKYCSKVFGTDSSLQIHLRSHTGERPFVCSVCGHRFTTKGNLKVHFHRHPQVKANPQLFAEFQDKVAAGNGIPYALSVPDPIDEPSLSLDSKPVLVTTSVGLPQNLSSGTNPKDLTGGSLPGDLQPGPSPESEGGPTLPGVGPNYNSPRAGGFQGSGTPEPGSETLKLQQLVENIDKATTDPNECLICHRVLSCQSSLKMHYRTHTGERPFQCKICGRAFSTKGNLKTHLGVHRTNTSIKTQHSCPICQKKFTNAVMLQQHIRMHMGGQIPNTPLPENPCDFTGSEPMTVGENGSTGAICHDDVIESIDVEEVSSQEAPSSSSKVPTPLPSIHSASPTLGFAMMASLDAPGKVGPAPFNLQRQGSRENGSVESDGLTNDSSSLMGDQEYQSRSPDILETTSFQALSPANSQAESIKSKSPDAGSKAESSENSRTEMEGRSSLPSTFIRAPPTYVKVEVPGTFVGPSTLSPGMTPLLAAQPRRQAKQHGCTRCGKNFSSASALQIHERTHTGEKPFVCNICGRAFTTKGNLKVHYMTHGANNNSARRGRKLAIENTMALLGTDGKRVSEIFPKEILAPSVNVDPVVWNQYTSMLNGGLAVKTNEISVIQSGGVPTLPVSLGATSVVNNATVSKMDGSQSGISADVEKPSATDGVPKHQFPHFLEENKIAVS
Notes: 8-mer, flanks averaged, mean of replicates
For `GCGTGCAA`, the E-score was -0.185.
For `GTACAAGA`, the E-score was 0.0139.
`GGCCCAGA` has an E-score of -0.303.
For `GGATAATA`, the E-score was 0.34.
The E-score of `ACAGTATA` is reported as 0.225.
`GTACCCCA` gave an E-score of -0.17.
With `TAACATAA` the E-score was 0.356.
`CGTTTCAC` gave an E-score of -0.112.
The E-score of `CATGGAGG` is reported as -0.0535.
`CAAGAACG` gave an E-score of -0.00293.
For `AAGTGGGC`, the E-score was -0.0661.
For `ATGAGACG`, the E-score was -0.0805.
The E-score of `CGTGCTGC` is reported as -0.187.
`AAAGTCCA` has an E-score of -0.0648.
`TACACTCA` has an E-score of 0.205.
For `GTTTCGAA`, the E-score was 0.0478.
For `CCAACGCG`, the E-score was -0.36.
`TGCTAACA` has an E-score of 0.0462.
`CATCGTAC` has an E-score of 0.177.
The E-score of `GCTCACTA` is reported as 0.0049.
`CGGAGACA` has an E-score of -0.127.
`AGTGCCGA` gave an E-score of -0.16.
`CGAAATAG` gave an E-score of 0.0818.

Series 3 — method: aptamer microarray, sandwich; molecule type: DNA with 2'F-ANA; matrix: in vitro; concentration: 200 nM; added: Cy3 exosite-II aptamer, 400 nM; reading: higher = stronger binding; oligonucleotide: GGTTGGTGTGGTTGG
Target: Prothrombin, mature alpha-thrombin (F2, Homo sapiens, UniProt P00734)
Notes: whole 15-mer aptamer, many near background
`2'F-ANA at 1 3 5 7 9 12 13` — result for “mean fluorescence intensity”: 76.4 a.u.
For `2'F-ANA at 1 5 7 9 10 11 12 14`, “mean fluorescence intensity” read 44.3 a.u.
`2'F-ANA at 1 3 8 12 13 14 15`: “mean fluorescence intensity” 128 a.u.
`2'F-ANA at 1 2 3 4 5 7 8 10 11 12 14`: “mean fluorescence intensity” 50 a.u.
For `2'F-ANA at 1 3 4 6 9 10 14`, “mean fluorescence intensity” read 50.7 a.u.
Under “mean fluorescence intensity”, `2'F-ANA at 1 2 5 7 9` is recorded as 58.6 a.u.
`2'F-ANA at 8 9 10 11 14 15` — result for “mean fluorescence intensity”: 98.9 a.u.
Under “mean fluorescence intensity”, `2'F-ANA at 1 2 3 4 9 10 12` is recorded as 77.6 a.u.
`2'F-ANA at 2 4 6 7 8 9 13 14 15`: “mean fluorescence intensity” 82.3 a.u.
`2'F-ANA at 1 2 3 5 6 11 12 14 15`: “mean fluorescence intensity” 47.4 a.u.
For `2'F-ANA at 1 2 3 5 6 7 8 9 10 12 14`, “mean fluorescence intensity” read 59.5 a.u.
For `2'F-ANA at 1 3 4 6 7 15`, “mean fluorescence intensity” read 223 a.u.
`2'F-ANA at 1 2 3 5 6 13`: “mean fluorescence intensity” 50.1 a.u.
For `2'F-ANA at 2 3 7 8 9 11 12 13 14 15`, “mean fluorescence intensity” read 434 a.u.
`2'F-ANA at 1 4 6 7 10 13 14`: “mean fluorescence intensity” 44.8 a.u.
`2'F-ANA at 1 2 4 8 10 12 13 14` — result for “mean fluorescence intensity”: 45 a.u.
For `2'F-ANA at 2 6 8 9 10 13 15`, “mean fluorescence intensity” read 149 a.u.
`2'F-ANA at 3 6 7 8 10 11 12 14` — result for “mean fluorescence intensity”: 367 a.u.

Series 4 — target: CCNB3, cyclin fold, Cln2 fusion (human); method: yeast growth competition, sequencing; matrix: yeast; notes: weak parent motif; reference: not given; reading: higher = stronger binding
Parent: DBF4 docking peptide (human); DDIVSKLVFDFVE
Under “normalised enrichment score”, `D10A` is recorded as 0.303.
Under “normalised enrichment score”, `S5A` is recorded as -0.241.
For `F9A`, “normalised enrichment score” read -0.0866.
`F11A`: “normalised enrichment score” 0.0999.
Under “normalised enrichment score”, `L7A` is recorded as -0.129.
`V8A`: “normalised enrichment score” 0.119.
Under “normalised enrichment score”, `D2A` is recorded as 0.103.

Series 5 — method: RNA Bind-n-Seq; molecule type: RNA; matrix: in vitro; concentration: 365 nM; reference: no-protein control; reading: higher = stronger binding
Target: RNA binding protein fox-1 homolog 2, RRM domain, GST-SBP tag (RBFOX2, Homo sapiens, UniProt O43251-10, residues 100-194)
Notes: natural RNA segment, single round, ends assumed
Target sequence (chain): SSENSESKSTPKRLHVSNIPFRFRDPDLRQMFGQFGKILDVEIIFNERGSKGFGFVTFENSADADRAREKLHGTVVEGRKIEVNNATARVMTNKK
`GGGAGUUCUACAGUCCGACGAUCAAUUCAGCACCUAUUUUGAAUUAAUGUGAGACCACAGGUGGCAGGCAGAUUCCUGCUUGGCAUAAGCAUUUGUAGGUCUUCAUUCAAUUCUGUUAGAUUUUUUUAUUGGAUGGAAUUCUCGGGUGCCAA` — result for “RBNS enrichment (R)”: 0.584.
Under “RBNS enrichment (R)”, `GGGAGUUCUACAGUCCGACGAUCCUUGGGCCUGCACUAGGCUUUAGAAAUGACAGUUUGUGAGUCUAUGAAUAAUUAUUUUUUAAAAAACUUUGUUGUCUCUGUUCUGAGUCUGAAUUCCUUGCAGAUGGUAGUGGAAUUCUCGGGUGCCAA` is recorded as 0.548.
`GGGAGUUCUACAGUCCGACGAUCGUUGAGAAUGUUAUUUGAAGAAUGCCUGUGAAGCCAGGUGUGGGUUCUACUCAGUGCCAUAGAUAGACUGAGUCUUCUCUCGUAGGUUACCAUUACAUAGUAAUUUUGAUUGGAAUUCUCGGGUGCCAA` — result for “RBNS enrichment (R)”: 0.887.
For `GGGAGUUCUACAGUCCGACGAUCUUGUUUUCAAUAUUGUAUUCAGCCUAUUGUAGGAGGGGGAUGUGGCGUUUCAACUCAUAUAAUACAGAAAGAGUUUUGAAUGGGCAGAUUUCAAACUGAAUAUGGGUCCCUGGAAUUCUCGGGUGCCAA`, “RBNS enrichment (R)” read 0.545.
Under “RBNS enrichment (R)”, `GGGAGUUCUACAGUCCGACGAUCUGGUGACUCCAGCCUCUUUCUCCUGGAGGUCACAAGAUGAUGAUUGCGUAGAUGUUGCCUGGUGCAAAGUGCCCCAAACAGCAAUAGAAAGGCAUAUGUAUAACCAAACUUGGAAUUCUCGGGUGCCAA` is recorded as 0.326.
For `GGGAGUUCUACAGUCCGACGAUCAGAGCAUGAUCAUAAAGGCUAUUUUGACAGUUCAUUUUAACAUUUAGAGUUGAUAAGGGUUUAUAUCUCAUCUGUCCAUAUUGUUUGCAAAGGAACAAGGUUUUAUGUAGUGGAAUUCUCGGGUGCCAA`, “RBNS enrichment (R)” read 0.346.
Under “RBNS enrichment (R)”, `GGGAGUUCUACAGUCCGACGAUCGGUUUUUUUUUUUUUUAAGUUUUUUCUUUCUUCCUCUCCUGAAUACACUCCCCAAAACACCCCUUUCCAGUUACAAUUAGCAUCGUGAUCCAAGCAGAUGCCACAUGGAAUGGAAUUCUCGGGUGCCAA` is recorded as 0.629.
`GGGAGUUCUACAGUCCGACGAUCAAAGGCUAGAAUUCAAGAACGGUCUUAACUGAACCCUCAUCAGAUCUGAAUUUAACAAAUGCUUAGUCUCAGCAGCCUCCGGGGGAAAAAAGCUUAGCCUAGCAGUCAGUUGGAAUUCUCGGGUGCCAA` — result for “RBNS enrichment (R)”: 0.583.
For `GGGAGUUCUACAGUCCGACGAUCCCUCAGAAAGAGACAGAAUAAAAAAAUUGUUCCCCAUGGUACAGCUGGAAAAAUUAAGGGGAAAAGAGAUUAAGUGGUCCCCAAUGGAACACAGCUGUCUUAUGCAGGGCUGGAAUUCUCGGGUGCCAA`, “RBNS enrichment (R)” read 0.618.
Under “RBNS enrichment (R)”, `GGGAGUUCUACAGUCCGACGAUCUUAAUUUCCUUUCUGGGCACCUUUUGUCCCCUACUUUUAAAUUAACGGUGAAACGGCCCUAGGAGGGUCGCUCUAGUUGAACUCUCCAGGCAGGACCUUAUGCUCAGAAAUGGAAUUCUCGGGUGCCAA` is recorded as 0.297.
Under “RBNS enrichment (R)”, `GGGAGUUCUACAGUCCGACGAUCUUCCUCCUCCACAUCAUCCCCACGACCCUUCUAACUCCUGGCCUCUUCCAGCCAAAACGGGAAAAGUGGCUGACUUCACUGCAUUAGAAGAGGAAAAGUCCAACUCCUUAUGGAAUUCUCGGGUGCCAA` is recorded as 0.943.
For `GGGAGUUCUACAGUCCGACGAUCAGUGCCACAAGCAUGACCUUGGUGGACACAGGAAGCCACAGGAAAAUUCUUGACAGUCUGUGUCCCAUCAGUCACUGCAUUUUUCUUUUUCCAAAUACAUCCUGUUGGAUUGGAAUUCUCGGGUGCCAA`, “RBNS enrichment (R)” read 1.93.

Series 6 — method: protein binding microarray; molecule type: double-stranded DNA, one strand shown; matrix: in vitro; concentration: not given; reference: not given; reading: higher = stronger binding
Target: Histone acetyltransferase KAT6A, both winged helices, GST fusion (KAT6A, Homo sapiens, UniProt Q92794, residues 1-181)
Notes: 8-mer, flanks averaged, mean of 2 arrays, mostly near background
Residues (chain): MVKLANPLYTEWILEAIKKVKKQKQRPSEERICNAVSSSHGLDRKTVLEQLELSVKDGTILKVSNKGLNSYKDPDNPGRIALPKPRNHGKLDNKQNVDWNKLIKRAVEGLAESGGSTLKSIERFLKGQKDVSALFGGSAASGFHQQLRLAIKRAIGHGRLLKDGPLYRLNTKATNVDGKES
With `GAAAATGA` the E-score was -0.0579.
With `AATCGCTG` the E-score was 0.112.
The E-score of `AGTCAGTG` is reported as -0.204.
`ACAAATCA` gave an E-score of -0.0302.
`AGGCGTGC` has an E-score of 0.068.
For `AATCGGCA`, the E-score was 0.155.
For `CCACTACG`, the E-score was -0.0679.
`AAGGTAGA` has an E-score of -0.193.
The E-score of `CAAGACTA` is reported as -0.00875.
For `GATAGGGC`, the E-score was -0.278.
`GGAGTCAA` has an E-score of -0.116.
With `CTATGACA` the E-score was 0.027.
`CACTGTCA` has an E-score of -0.19.
`AGAAGAGA` has an E-score of -0.119.
With `CGATAGAG` the E-score was -0.122.
The E-score of `TTCTTAAA` is reported as -0.158.
For `CACAGTAG`, the E-score was -0.095.
With `CGAATGCA` the E-score was 0.00133.
The E-score of `CAAGCAGG` is reported as -0.0862.

A few entries again (series 6):
`ACAAATCA` gave an E-score of -0.0302.
`AGGCGTGC` has an E-score of 0.068.
For `AATCGGCA`, the E-score was 0.155.
For `CCACTACG`, the E-score was -0.0679.
`AAGGTAGA` has an E-score of -0.193.
The E-score of `CAAGACTA` is reported as -0.00875.
For `GATAGGGC`, the E-score was -0.278.
`GGAGTCAA` has an E-score of -0.116.
With `CTATGACA` the E-score was 0.027.
`CACTGTCA` has an E-score of -0.19.
`AGAAGAGA` has an E-score of -0.119.
With `CGATAGAG` the E-score was -0.122.
The E-score of `TTCTTAAA` is reported as -0.158.
For `CACAGTAG`, the E-score was -0.095.
